# Assay results pooled from the literature.
# A part holds a random share of what one study measured.

# Study 1
# Target: Prothrombin, mature alpha-thrombin (F2, Homo sapiens, UniProt P00734)
# Technique: aptamer microarray, sandwich
# Molecule type: DNA with 2'F-ANA
# Matrix: in vitro
# Tested at: 200 nM
# Notes: whole 15-mer aptamer, many near background
# Added: Cy3 exosite-II aptamer, 400 nM
# Direction: higher = stronger binding
# Oligonucleotide: GGTTGGTGTGGTTGG
Modification,mean fluorescence intensity [a.u.]
2'F-ANA at 3 5 6 8 9 11 13 14,57.2
2'F-ANA at 1 2 8 9 10 12 15,72.7
2'F-ANA at 2 3 7 10 12 13 14,317
2'F-ANA at 1 2 4 5 7 8 13 15,52.6
2'F-ANA at 6 8 10 13 14,100
2'F-ANA at 3 4 5 7 9 11 14 15,81
2'F-ANA at 1 2 3 4 6 7 11 12 13,171

# Study 2
# Target: Centromere-binding protein 1, full length, His-tagged (CBF1, Saccharomyces cerevisiae, UniProt P17106, residues 1-351)
# Sequence of UniProt P17106 (whole entry, looked up): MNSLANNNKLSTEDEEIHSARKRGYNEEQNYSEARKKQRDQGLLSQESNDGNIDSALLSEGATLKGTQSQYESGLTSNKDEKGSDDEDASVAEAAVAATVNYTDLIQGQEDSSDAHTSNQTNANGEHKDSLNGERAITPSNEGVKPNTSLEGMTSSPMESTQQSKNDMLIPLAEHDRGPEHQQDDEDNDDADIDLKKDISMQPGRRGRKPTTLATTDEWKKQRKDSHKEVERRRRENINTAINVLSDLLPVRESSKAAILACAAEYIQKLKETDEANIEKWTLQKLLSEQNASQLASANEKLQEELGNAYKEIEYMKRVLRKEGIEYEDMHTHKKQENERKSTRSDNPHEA
# Technique: competition protein-binding microarray
# Molecule type: double-stranded DNA, one strand shown
# Matrix: in vitro
# Tested at: 2 µM
# Notes: whole 60-bp probe, lowest competitor level
# Added: Pho4 competitor, 0.05 µM
# Direction: higher = stronger binding
Oligonucleotide,fluorescence intensity
CTTCTGTAAATTTGCAGGGTGGGTGGACGCGCCCCGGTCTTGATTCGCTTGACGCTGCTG,84.7 a.u.
CGTCCTAGTGATTTTCACGTGCTATCCATGAGGAAGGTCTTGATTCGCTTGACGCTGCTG,1380 a.u.
CGGGGTTAAGTTTGCCAGGTGGGTGGCTTGCAGCAGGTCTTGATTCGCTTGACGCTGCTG,64.3 a.u.
CTCACTCAGTACCATTACGTGTGAAAACTCCGCTGGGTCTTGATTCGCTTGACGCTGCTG,73.8 a.u.
CGGGGTTAAGTTTTTCACGTGTTGTGCTTGCAGCAGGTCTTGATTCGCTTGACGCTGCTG,841 a.u.
CTTCTGTAAATTTGGGCAGTGGGTGGACGCGCCCCGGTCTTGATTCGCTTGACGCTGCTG,90.7 a.u.
GTCTTGTCTCATTGCTTCGTGGGTGTCCCCACTTCAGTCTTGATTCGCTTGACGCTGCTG,85 a.u.

# Study 3
# Target: Histone acetyltransferase KAT6A, both winged helices, GST fusion (KAT6A, Homo sapiens, UniProt Q92794, residues 1-181)
# Technique: protein binding microarray
# Molecule type: double-stranded DNA, one strand shown
# Matrix: in vitro
# Tested at: not given
# Notes: 8-mer, flanks averaged, mean of 2 arrays, mostly near background
# Relative to: not given
# Direction: higher = stronger binding
# Construct (chain): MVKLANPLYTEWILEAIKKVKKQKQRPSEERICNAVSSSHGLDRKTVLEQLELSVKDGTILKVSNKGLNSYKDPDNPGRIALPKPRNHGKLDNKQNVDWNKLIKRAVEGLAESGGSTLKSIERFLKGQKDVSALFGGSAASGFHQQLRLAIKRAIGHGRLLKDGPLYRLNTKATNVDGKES
Oligonucleotide,E-score
GATGCAGA,-0.173
ATCCGACG,0.204
GTAATATA,0.0222
AATCTGTA,-0.124
GGAAAGCA,0.118
AGTAGCCC,-0.0522
AGGGCACG,-0.045
CATACCAC,-0.0135

# Further values, each from its own experiment
Substance,target,assay,system,conditions,how to read,quantity,result
"PhoQ, residues 284 288 289 292 302 303 AGHLVA","PhoP, residues 12 14 15 18 19 LQHIR (Escherichia coli, UniProt P23836)","Sort-seq, measured: YFP reporter",E. coli,"PhoQ-PhoP variant library, added: 10 µM Mg2+","relative to: high Mg2+ state, higher = stronger signaling",fold induction,9.83
